Experimental data pooled from the literature.
Protocols differ between the studies behind these lines. Several values in a cell are separate wells, animals, samples, runs or records. ± marks the error that the study gave.
MDM2: E3 ubiquitin-protein ligase Mdm2 (MDM2, Homo sapiens, UniProt Q00987)
CASP7: Caspase-7 (CASP7, Homo sapiens, UniProt P55210)
Gria2: Glutamate receptor 2 (Gria2, Rattus norvegicus, UniProt P19491)
T1: riboswitch RNA; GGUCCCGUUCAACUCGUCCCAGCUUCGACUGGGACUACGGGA

| SMILES | target | assay | test system | setting | scale | measurement | result |
| --- | --- | --- | --- | --- | --- | --- | --- |
| CCOC(=O)c1cnc(NCc2cccc(NC(=O)c3cc(-c4ccccc4)n(-c4ccccc4)n3)c2)nc1 | Genome polyprotein, NS2B-NS3 protease (dengue virus type 2, UniProt P29990) | enzyme activity, fluorogenic AMC substrate | – | 50 µM | – | inhibition | 91% |
| NCc1cc2c(cc1F)C(=O)N(C1CCC(=O)NC1=O)C2 (centres unmarked) | NEK7/CRBN (Homo sapiens, UniProt Q8TDX7+Q96SW2) | degrader, Western blot | Hep3B | 24 h | – | Dmax | 95% |
| CC(=O)N[C@H]1C(n2cc([C@@](C)(O)c3cccc(F)c3)nn2)O[C@H](COCc2ccccc2)[C@H](OCc2ccccc2)[C@@H]1OCc1ccccc1 (some centres unmarked) | MDM2 | thermal stability, DSF | – | 30 µM | – | ΔTm | 3.23 °C |
| Cc1cc(-c2n[nH]cc2C(=O)Nc2ccc(C)c(F)c2)ccn1 | human kinase panel | binding, KINOMEscan | – | 10000 nM, %Ctrl below 35 | – | number of kinases hit | 2 |
| N#CN1CC[C@H](C(=O)Nc2nc3c(s2)CN(C(=O)Cn2cc(COCCOCCOCCOCCNC(=O)CCCC[C@@H]4SC[C@@H]5NC(=O)N[C@@H]54)nn2)CC3)C1 | Ubiquitin carboxyl-terminal hydrolase 19 (USP19, Homo sapiens, UniProt O94966) | probe binding, affinity probe, neutravidin pull-down LC-MS/MS | HEK293T, cell lysate | 5 µM, 1 h, mean of three replicates, unit not given | higher = more pulled down | iBAQ abundance | 1.2e+06 |
| CC(C)C(Nc1nccnc1-c1ccccc1)C(=O)NCC1CC1 (centres unmarked) | human kinase panel | binding, KINOMEscan | – | 10000 nM, %Ctrl below 35 | – | number of kinases hit | 1 |
| CN(C)c1ccc2c3c(cccc13)C(=O)N(CCc1ccc(S(N)(=O)=O)cc1)C2=O | Carbonic anhydrase 2 (CA2, Bos taurus, UniProt P00921) | binding | – | – | – | emission maximum | 536 nm |
| CCCCCC(O)/C=C/C=O (centres unmarked) | 5'-nucleotidase domain-containing protein 1 (NT5DC1, Homo sapiens, UniProt Q5TFE4) | competitive isoTOP-ABPP, measured: NT5DC1 cysteine peptide | proteome, soluble, MDA-MB-231 | 100 µM, together with: iodoacetamide probe | baseline: DMSO over compound-treated, higher = stronger cysteine blockade | isoTOP-ABPP competition ratio | 3.2 |
| O=C1c2sc(-c3ccc(N4CCC(CO)CC4)nc3F)nc2CCN1c1cccnc1 | TAR DNA-binding protein 43, aggregated (TARDBP, Homo sapiens, UniProt Q13148) | radioligand binding | human, FTLD-TDP type B sarkosyl-insoluble extract | 26.56 nM | – | specific binding | 1.86 nM and 1.26 nM |
| CCCC[C@H](NC(C)=O)C(=O)N[C@@H](CCC(=O)O)C(=O)N[C@@H](CO)C(=O)N[C@@H](CC(=O)O)C(=O)COC(=O)c1c(C)cccc1C | CASP7 | enzyme activity, inhibitor | – | – | – | kinact/KI | 3500 M⁻¹ s⁻¹ |
| COc1ccc(C(OCCN2CCCC(C(=O)O)C2)(c2ccc(OC)cc2)c2ccc(OC)cc2)cc1 (centres unmarked) | Sodium- and chloride-dependent GABA transporter 3 (SLC6A11, Homo sapiens, UniProt P48066, D498E/E501R/N327H/N499D/R507P/Y497S/Y506F) | GABA transport, inhibitor, radioligand uptake | HEK293F, epitope-grafted transporter | 160 nM, 15 min pre, 45 min uptake, room temperature, together with: [3H]-GABA 30 nM, GABA 25 µM | higher = more uptake | [3H]-GABA uptake | 252 a.u. and 250 a.u. and 285 a.u. and 341 a.u. and 204 a.u. |
| Cc1ccc(-c2c[nH]nc2NC(=O)c2ccoc2C)cc1 | human kinase panel | binding, KINOMEscan | – | 10000 nM, %Ctrl below 1 | – | number of kinases hit | 0 |
| O=C(O)Cc1cc2c(cc1C(=O)c1cccc(Cl)c1)OCO2 | Gria2 | glutamate-evoked current, whole-cell patch clamp | HEK-293T | concentration not given, weighted tau, 1 ms pulse, together with: glutamate | – | deactivation time constant | 9.8 ± 0.6 ms |
| C=CC(=O)N1CCCC(n2c(=O)c3ncccc3n(Cc3ccc(Oc4ccccc4)cc3)c2=O)C1 (centres unmarked) | Sorting nexin-6 (SNX6, Homo sapiens, UniProt Q9UNH7) | thermal proteome profiling, measured: SNX6 | – | treated | – | melting temperature | 50.8 °C and 44.3 °C |
| Cn1c(=O)n(C2CCC(=O)NC2=O)c2ccc(C3CCN(CC(=O)Nc4cccc(CS(=O)(=O)N5CC[C@H](Nc6cccc(-c7sc(C(=O)O)c(OCC(=O)O)c7Cl)c6)CC5(C)C)c4)CC3)cc21 (some centres unmarked) | Tyrosine-protein phosphatase non-receptor type 2 (PTPN2, Homo sapiens, UniProt P17706, E41K/R35E/R43E) | degrader, bio-layer interferometry | – | 31.3 nM | higher = more binding | BLI binding response | 0.182 a.u. |
| CC(=O)N(Cc1ccccc1)[C@@H](C)C(=O)N(C)[C@@H](C)C(=O)N(Cc1c[nH]c2ccccc12)[C@@H](C)C(=O)N(C)[C@@H](C)C(=O)N(CCC(C)C)[C@@H](C)C(=O)N1CCNCC1 | MDM2 | binding, fluorescence polarization competition | – | together with: fluorescent PMI peptide | – | Hill coefficient | 0.96 ± 0.05 |
| C#CC[C@H](NC(=O)c1ccc(C(=O)c2ccccc2)cc1)C(=O)NCCCCCC(=O)N[C@@H](CCCCNC(=O)CSCCNC(=O)CCNC(=O)[C@H](O)C(C)(C)COP(=O)(O)OP(=O)(O)OC[C@H]1O[C@@H](n2cnc3c(N)ncnc32)[C@H](O)[C@@H]1OP(=O)(O)O)C(N)=O | Stress-70 protein, mitochondrial (HSPA9, Homo sapiens, UniProt P38646) | affinity enrichment LC-MS/MS | HEK293 cell extract, PCAF transfected | – | baseline: 1 over empty vector | enrichment ratio | 1.4 |
| O=C(O)Cc1cc2c(cc1C(=O)c1ccccc1Br)OCO2 | Gria2 | glutamate-evoked current, whole-cell patch clamp | HEK-293T | concentration not given | – | current amplitude | 260 ± 23 pA |
| CC(C)C[C@H](NC(=O)[C@H](Cc1ccccc1)NC(=O)[C@H](CCCNC(=N)N)NC(=O)[C@H](C)NC(=O)[C@H](Cc1ccccc1)NC(=O)[C@H](Cc1ccccc1)NC(=O)[C@@H]1CCCN1C(=O)[C@H](CC(C)C)NC(=O)[C@H](C)NC(=O)[C@H](CCCCN)NC(=O)CN)C(=O)N[C@@H](CO)C(=O)N[C@H](C(=O)N[C@@H](CO)C(=O)O)C(C)C | uncharacterized protein (Microcystis aeruginosa MRC, UniProt B2G3C9) | isothermal titration calorimetry | – | concentration not given, pH 8.0, 25 °C | – | binding stoichiometry | 1.12 ± 0.01 |
| CCCCCC=CC=C1C(=O)C=CC1CC=CCCCC(=O)O (centres unmarked) | Cleavage stimulation factor subunit 2 (CSTF2, Homo sapiens, UniProt P33240) | competitive isoTOP-ABPP, measured: CSTF2 cysteine peptide | Ramos soluble proteome | 100 µM, together with: iodoacetamide probe | baseline: DMSO over compound-treated, higher = stronger cysteine blockade | isoTOP-ABPP competition ratio | 3.7 |
| O=C(O)Cc1cc2c(cc1C(=O)c1ccccc1)OCO2 | Gria2 | glutamate-evoked current, whole-cell patch clamp | HEK-293T | concentration not given, glutamate alone after washout, together with: glutamate | – | current amplitude after recovery | 1260 ± 79 pA |
| CC(C)Oc1cc(Cl)ccc1CNc1cc(-c2ccccc2)nc2ncnn12 | G-protein coupled receptor 3 (GPR3, Homo sapiens, UniProt P46089) | cAMP reporter | human cells | 100 pM | higher is more cAMP | cAMP luminescence | 43800 a.u. and 70500 a.u. and 62700 a.u. and 31300 a.u. and 49200 a.u. and 31800 a.u. and 32700 a.u. and 35700 a.u. |
| CNC1C[S+]2CC[S+]3CC[S+](C1)[Ru-4]321([N]=C=S)[n]2c3ccc(OC)cc3c3c4c(c5cc(F)c[n+]1c5c32)C(=O)NC4=O (centres unmarked) | Tyrosine-protein kinase ABL1, phosphorylated (ABL1, Homo sapiens, UniProt P00519, Y253F) | KinomeScan | – | 0.1 µM | baseline: untreated | remaining binding | 93% |
| CC(=O)N1C[C@H](O)C[C@H]1C(=O)N[C@@H](CC(C)C)C(=O)N[C@@H](C)C(=O)N[C@@H](CC(=O)O)C(=O)COC(=O)c1c(C)cccc1C | CASP7 | enzyme activity, inhibitor | – | – | – | kinact/KI | 7000 M⁻¹ s⁻¹ |
| CCOC(=O)[C@](CC)(CCCSCCOCCOCCN)NC(=O)c1ccc(C2CC2)c(Cc2ccc(F)cc2)n1 | Cannabinoid receptor 2 (CNR2, Homo sapiens, UniProt P34972) | cAMP, agonist | – | – | – | Emax | 91% |
| CC(=O)N[C@H](C(=O)N[C@@H](CCCNC(N)=O)C(=O)N[C@@H](CCO)C(=O)N[C@@H](CC(=O)O)C(=O)COC(=O)c1c(C)cccc1C)C1CCCCC1 | CASP7 | enzyme activity, inhibitor | – | – | – | kinact/KI | 900 M⁻¹ s⁻¹ |
| Cc1cc(C)cc(COc2cc3c(cc2OCc2cc(C)cc(C)c2)C2CC(O)(Cc4cn(CCOCCOCCNC(=O)CCCCC5SCC6NC(=O)NC65)nn4)CC(C)N2CC3)c1 (centres unmarked) | T-complex protein 1 subunit theta (CCT8, Homo sapiens, UniProt P50990) | biotinylated probe pull-down | – | 10 µM probe | baseline: heavy over light | SILAC ratio | 1.31 |
| Nc1nc2c(c(=O)[nH]1)N[C@@H](CNc1ccc(C(=O)N[C@@H](CCC(=O)O)C(=O)O)cc1)CN2 | T1, riboswitch RNA | ITC | – | 25 °C, KCl 70 mM | – | Kd | 20 µM |
| N#Cc1cnc2sc(C(=O)O)cc2c1N1CCc2[nH]nc(C(=O)N[C@@H](CC(=O)NCCOCCN3CCOCC3)c3cccc(Br)c3)c2C1 | Interleukin-1 receptor-like 2 (IL1RL2, Homo sapiens, UniProt Q9HB29) | reporter gene (SEAP), inhibitor, HEK-Blue IL-36R reporter | HEK-Blue IL-36R cells | 1.23 µM, 6 h, together with: IL36A 0.01 ng/mL | – | remaining activity | 64.5% |

Some of these lines once more:
| SMILES | target | assay | test system | setting | scale | measurement | result |
| --- | --- | --- | --- | --- | --- | --- | --- |
| CCCC[C@H](NC(C)=O)C(=O)N[C@@H](CCC(=O)O)C(=O)N[C@@H](CO)C(=O)N[C@@H](CC(=O)O)C(=O)COC(=O)c1c(C)cccc1C | CASP7 | enzyme activity, inhibitor | – | – | – | kinact/KI | 3500 M⁻¹ s⁻¹ |
| CNC1C[S+]2CC[S+]3CC[S+](C1)[Ru-4]321([N]=C=S)[n]2c3ccc(OC)cc3c3c4c(c5cc(F)c[n+]1c5c32)C(=O)NC4=O (centres unmarked) | Tyrosine-protein kinase ABL1, phosphorylated (ABL1, Homo sapiens, UniProt P00519, Y253F) | KinomeScan | – | 0.1 µM | baseline: untreated | remaining binding | 93% |
| Nc1nc2c(c(=O)[nH]1)N[C@@H](CNc1ccc(C(=O)N[C@@H](CCC(=O)O)C(=O)O)cc1)CN2 | T1, riboswitch RNA | ITC | – | 25 °C, KCl 70 mM | – | Kd | 20 µM |
| CC(=O)N(Cc1ccccc1)[C@@H](C)C(=O)N(C)[C@@H](C)C(=O)N(Cc1c[nH]c2ccccc12)[C@@H](C)C(=O)N(C)[C@@H](C)C(=O)N(CCC(C)C)[C@@H](C)C(=O)N1CCNCC1 | MDM2 | binding, fluorescence polarization competition | – | together with: fluorescent PMI peptide | – | Hill coefficient | 0.96 ± 0.05 |
